Experimental data from different studies.
Parts stem from different laboratories: compare values within a part only.

Series 1
Target: Ras GTPase-activating protein-binding protein 1, full length (G3BP1, Homo sapiens, UniProt Q13283)
Chain of UniProt Q13283 (whole entry, looked up): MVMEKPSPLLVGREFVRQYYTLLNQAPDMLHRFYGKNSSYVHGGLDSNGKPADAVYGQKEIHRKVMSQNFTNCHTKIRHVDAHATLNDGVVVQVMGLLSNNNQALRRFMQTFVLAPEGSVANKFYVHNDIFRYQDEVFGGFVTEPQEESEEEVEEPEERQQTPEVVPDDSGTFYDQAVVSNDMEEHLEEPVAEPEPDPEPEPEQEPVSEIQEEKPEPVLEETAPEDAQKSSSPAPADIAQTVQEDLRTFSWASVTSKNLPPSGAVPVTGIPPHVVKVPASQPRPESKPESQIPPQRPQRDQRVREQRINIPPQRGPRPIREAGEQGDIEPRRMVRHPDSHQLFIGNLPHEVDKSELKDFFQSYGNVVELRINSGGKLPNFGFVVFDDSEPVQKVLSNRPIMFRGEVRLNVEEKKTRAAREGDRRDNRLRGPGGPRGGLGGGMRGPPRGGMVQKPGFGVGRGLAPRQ
Method: RNA Bind-n-Seq
Form: RNA
Matrix: in vitro
Tested at: 200 nM
Notes: whole 134-nt RNA, ends assumed
Together with: 150 mM LiCl
Baseline: input library
Direction: higher = stronger binding
All molecules: 7-deaza-guanosine replaces G
All sequences stand within: GGGAGUUCUACAGUCCGACGAUC … UGGAAUUCUCGGGUGUCAAGG
| Strand | log2 enrichment |
| --- | --- |
| CUCAAGUCCUGUGCUACACAUCGUAUGUACCGAAUCGGUUUUUGGAGGAAAGGAAAGUAUUAUGUUACGCCGUUCGGAUCUGCACUUCCA | 0.0578 |
| AGUCCUGUGCUACACAUCGUAUGUACCGAAUCGGAAAGGUUUUUUUGGUUUUUUUGGAAAGUAUUAUGUUACGCCGUUCGGAUCUGCACU | -2.44 |
| GUCCUGUGCUACACAUCGUAUGUACCGAAUCGGGGCCCCCGGGCCCCCGGCCCCCGGGGAAAGUAUUAUGUUACGCCGUUCGGAUCUGCA | -0.66 |
| UUGAUGUUAGUAAAUUUGGUGUAAUACGUGGGGCUUCCAUAUUUCAAAGUGGAAGCUUUCUUCUCUGAAGUCGAUAUAUGGUUUUGAAUU | -0.521 |
| GAAGGAAGUAAAAACAAAUGGAAAUGCUUCGGAUAGUGGCAGGGGUGGGGGUUGCUAAGGAAAGGGUGGGAUGGGAGUGGGUAAAGAGUU | -0.15 |
| CCUGUGCUACACAUCGUAUGUACCGAAUCGGAAAAAAAGGGAAAAAAAGGGAAAAAAAGGAAAGUAUUAUGUUACGCCGUUCGGAUCUGC | -0.16 |
| GAGCAAAGAGCCAUUCAGCUUCAGUCUUUACAUACCAUGAAUAAAACAUUAAAACAUCAUAUGGAGAAGUUUACAUGGUGAUUGUUCACC | 0.0572 |
| GUCCUGUGCUACACAUCGUAUGUACCGAAUCGGGUUUUUUUGGGAAAGGGAAAAAGGGAAAGUAUUAUGUUACGCCGUUCGGAUCUGCAC | -0.751 |
| CUGUGCUACACAUCGUAUGUACCGAAUCGGAAAAAAAGGGGAAAAAAAGGGGAAAAAAAGGAAAGUAUUAUGUUACGCCGUUCGGAUCUG | 0.0464 |
| GUCCUGUGCUACACAUCGUAUGUACCGAAUCGGGUUUGGGUUUUUGGGAAAAAAAGGGAAAGUAUUAUGUUACGCCGUUCGGAUCUGCAC | -0.581 |
| UCAAGUCCUGUGCUACACAUCGUAUGUACCGAAUCGGAAAGGAAAGGAAAAAGGAAAGUAUUAUGUUACGCCGUUCGGAUCUGCACUUCC | -0.205 |

Series 2
Target: RING finger protein unkempt homolog, zinc fingers 1-6, GST-SBP tag (UNK, Homo sapiens, UniProt Q9C0B0, residues 30-357)
Method: RNA Bind-n-Seq
Form: RNA
Matrix: in vitro
Tested at: not given
Notes: RNA with constant flanks, human-mouse chimeric sites, ends assumed
Baseline: input RNA pool
Direction: higher = stronger binding
All sequences stand within: GGGAGUUCUACAGUCCGACGAUC … CAACAGAGGAUUGAGCAUCA
Target sequence (chain): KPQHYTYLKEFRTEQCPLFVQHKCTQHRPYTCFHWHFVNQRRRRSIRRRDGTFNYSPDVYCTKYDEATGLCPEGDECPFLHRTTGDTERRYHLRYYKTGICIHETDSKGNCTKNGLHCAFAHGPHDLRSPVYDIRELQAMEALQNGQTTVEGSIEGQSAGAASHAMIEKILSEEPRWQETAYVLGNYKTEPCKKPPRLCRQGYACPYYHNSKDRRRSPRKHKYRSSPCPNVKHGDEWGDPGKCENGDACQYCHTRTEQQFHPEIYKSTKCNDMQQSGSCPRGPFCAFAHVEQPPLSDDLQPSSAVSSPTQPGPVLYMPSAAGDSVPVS
| Strand | bound/input enrichment |
| --- | --- |
| CUGUGUGUGCUGAAUAAUGAUUUGUGAAAGAAGUUUUUCCAAGCUGUACCCAUGUACGUUAUUAUAGUUGCUGCAAAAUGUUCUUCCUGAUAUUGAUUUUAUUUGUUAACUGAAGGUCUC | 0.584 ratio |
| UACUCAACUUUCUUGCCACAUUUUGAAUUCCAAGACAUUAUUCCUCCAGAUGACUUCCUAACGAGUGAUGAAGAGCAAGAUUCCGUUUUAUUUGGAACUAUGAGAGGUCAUGUGGUUGGA | 0.282 ratio |
| CUCGGCACUGGUACCCUUUACAUCGCGGAGAGCCGCCUGUCCUGGUUAGAUGGUUCGGGAUUAGGAUUCUCACUGGAAUACCCCACCAUUAGUUUACAUGCGGUGUCCAGGGACCGAAAC | 1.19 ratio |
| AAAGUGGACUAUGGCGAAUACAUGGAUAAAAACAAUGUGAGGCGGCAAGCAACAACAAUCAUAGCUGAUAACAUUAUAUUUCUGAGUGACCAGACAAAAGAAAAGGCAUAGAACGGAUGA | 2.34 ratio |
| UGACAAGGGCACUGCAGAGCCAUGCCUUUCCUUGACAUACAGAAAAAGUUCGGCCUUAGCCUGGACCGAUGGUUGACGUUCCUAAGCGCAGAACAGCCCUAUAAGAACGCCGCUCGGUGC | 0.0797 ratio |
| CACAGAGGCACCACCCCCCCCUCCUCCUUUCCACACCUGCAAACUCUUUUACUUGGGCUGAAUAUUUAGUGUAAUUAACAUCGCAGCUUGAGGGCUCCUGUGGCAAAUUCCCGGAUUAAA | 2.24 ratio |
| AGAUUCCCUCUCUUAAAACCUCCUCCGAAGUUGGAGUCUCUUACAGAUGGUUCAUCUCCUGUUAGCGUUUUAGUUUGGACCACCCAGCCUUGGACAAUUCCCGCCAACCAGGCAAUUUGC | 0.816 ratio |
| ACACAAUAUGAGACCAACAGCAUGGACUUCAAAGUUGGGGCAGAUGGGACAGUCUUCGCCACCCGGGAGCUGCAGGUCCCCUCCGAGCAGGUGGCCUUCACGGUGACUGCAUGGGACAGC | 0.279 ratio |
| AGCACAACCCCAGCAAAGCUAAGAAAUCCUUGCACAAGUGAACAAAACUGCACCAGCCCAUUUAGCUACAAAAAUGUGCUCAGUCUUACUGACAGAGGAGAGUUUUUCAAUGAACUUGUU | 1.91 ratio |
| UCGGAUGCUGUGCUGGGUCACUUUCCGUAUCCAGAUCCUUCACAGUGGACAGAUGAAGAACUGGGAAUCCCUCCUGAUGAUGAAGACUGACACUGUAAACUCUCUGGACGAGUAGGAGCA | 0.399 ratio |
| UGGCGCCUCCCAUUUUUACUCGUGUUUUUAAGUGUAUUUUUAUAAGAUACAUGUAUUUACAAUUGAGCUUUUGUUACAUAAUGCUGAAAUGCUACUGCAAUAUUAUGAAAAUGUUUCAAU | 0.0812 ratio |

Series 3
Target: Interferon regulatory factor 5, full length, phosphomimetic (IRF5, Homo sapiens, UniProt Q13568-2, residues 1-514, S451D/S453D/S456D/S462D)
Method: protein-binding microarray
Form: double-stranded DNA, one strand shown
Matrix: in vitro
Tested at: 940 nM top
Notes: 60-bp whole probe
Together with: salmon DNA 0.4 mg/ml
Baseline: random background probes
Direction: higher = stronger binding
All sequences stand within: GCCTAGCAC … GTCTTGATTCGCTTGACGCTGCTG
| Strand | fitted relative affinity [z-score] |
| --- | --- |
| GACGATTTAAGTTCCGAGACGTGCTAG | 0.49 |
| TCATTTTGGTTTTCTCTAACTGTGCTA | 1.51 |
| TTAGGTTTCCTTTTCCTTTAGTGCTAG | 2.25 |
| TGAGATTTCAGTTTCGATTAGTGCTAG | 9.04 |
| TTAGGAGTGCTTATCCTTTAGTGCTAG | -0.397 |
| GTATATATGTGTATATATAAGTGCTAG | 0.515 |
| TTTGATTTCAGTTCCGATTAGTGCTAG | 2.57 |
| TTACATTTCGGGACTGGATTAGTGCTA | 0.418 |
| GACGGTATCCTTATGCTGACGTGCTAG | -0.0139 |
| GACGGACTGTGTTTCGGGACGTGCTAG | 0.402 |
| GACGATCTCAGTCTCGCGACGTGCTAG | 0.382 |
| GACGGACTTGACACTGGGGACGTGCTA | -0.403 |
| TTAGATAGCAGTATCGATTAGTGCTAG | 3.38 |
| TCATGTCCCTGTTTCTAACTGTGCTAG | 0.908 |
| GCCGGACTGGACACTGGGGACGTGCTA | -0.649 |
| TTAGGTTCCCTTTTCCTGTAGTGCTAG | 0.475 |
| TCAGTTCTGCTTTGCCTACTGTGCTAG | 0.0391 |
| TTAGGATCCGGTTTCGGTTAGTGCTAG | 8.26 |
| GACGGACTGCTTTTCCAGACGTGCTAG | -0.416 |
| TTAGGTATCGGTTTTCGGTTAGTGCTA | 8.53 |
| TTAGGTATCGGGACCGGGTTAGTGCTA | 4.48 |
| GACGGTATCCTTAACCTGACGTGCTAG | 0.43 |

Series 4
Target: RNA binding protein fox-1 homolog 2, RRM domain, GST-SBP tag (RBFOX2, Homo sapiens, UniProt O43251-10, residues 100-194)
Method: RNA Bind-n-Seq
Form: RNA
Matrix: in vitro
Tested at: 365 nM
Notes: natural RNA segment, single round, ends assumed
Baseline: no-protein control
Direction: higher = stronger binding
All sequences stand within: GGGAGUUCUACAGUCCGACGAUC … UGGAAUUCUCGGGUGCCAA
Residues (chain): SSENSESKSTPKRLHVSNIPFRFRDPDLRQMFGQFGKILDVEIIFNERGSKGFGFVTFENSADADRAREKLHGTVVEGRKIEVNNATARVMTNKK
| Strand | RBNS enrichment (R) |
| --- | --- |
| AAGAGGAGCUGCCUAGCCUGGCAGCAUUGCCCCGAGCUGAGCCCCCUUGGCCAGGACUUCACAAGGCUCACACCUACAAUCCCAUGAAGGCCAGGGUGGUCUGCUUAGCC | 0.289 |
| GGGGCUUGGAAUAGAGAAACCUAAAGAAGCAUCAUCCCCUCCAUCCCCAACUUCCUCAAAGCCCAAAGCCAAGGGAAGGAUAAAUCAAGGCUCAAGGCUUCCCCAGCAAA | 0.845 |
| CUAAUAUAUAUUGUAUUUUUAUUUGAUAGCUUGGGAUUUAAAACAUCUCUGUUGAAGGCUUUUGAUCCUUUUGAGAAAUAAAGAUCUGAAAGAAAUGGCAUAAUCUUAAA | 0.552 |
| GGGCCAUGGGGCUUCUUGUGCCCUAAAGGGGACUGGCUGCUGUGAUCUUCUAAGGGGCCCAGGGCCAACCCUGUAGGCUUCCCCUCUGCUGGGGACGGUAGUUGCUUUUC | 0.4 |
| CGACCGCCCCAGCCUGUGCCCGCCCCGUGCCUGCCGUGGCUGGUGGGUGGCGGUGGUGGGGCCGGGUGGGCCCCCGCCCAGCGCCUGCUGGAAUGAGAAGCACAGACUCC | 0.268 |
| UUGGGCCAAAAAUGCAGACUCAGGUUUUAGGUGUCUUACCACAUGGCUGCCCUGUGCAGGCUGUCAUCAGAGUUCUCCAUGUGGGUCAAUACCUGCACCCCCAGGAAGAG | 0.487 |
| AUUGAUUACAUUUUUGGUGAUCACCGAGAAUUUUUUGUACUAUAUUUUAAAAAAUGUAUUCUACUGUAACAAGUUAAUAAAGAGAUUUUUUAAAAAACUAUAAACUAGAA | 1.54 |
| UCUUGGCUGGGAUGGCACUACCCUGUGAGCCAAACACUUUAGGUGUAAGUAGGUACACUUGUGACGUCACUGACCUAGCGUACCUUUCCUUUUCAUAUCUACACUGACCU | 0.344 |
| UUCACUUGUGUAUUUUACAGUGGUAGUAAAAUAUGUCUUCAACUGAUCAUUGCACUUAAAAUAUUAAUACUUCGGAGGAUAAAGCAGAAGGGUCAUAAGCUCAAGGCCAU | 0.568 |
| CAGUUCCGGUUAUGUUUUUCUCCAAAACCUGAACAUUUUUACUCUGUUGGCUCAUUCUAUUUUGACUAAUGUUACAAAGUACUGAAAAAACUGUAGAAUAGAUAUUUUUA | 0.682 |
| GUGCUCAUCUCAUUGAGGAGCAGAUUAAUUUUGGGUAAUAAGUGUGAUCAUUGUUGAACUUCAGCUCCAGUGUCUCUCCAGAAUAAGACAUUGGCAUUCAAAUGUCUAUA | 0.451 |
| UUUUCAGAGAGUGACCGAAUAGGAAGAAGGGAUUCAGAAAUAUGAUGUAGUAGAACAUGCCCUGCAGGAAGAAAAUGUUUUCUCUCCUGCGUAUGUUAAGAGGAAAUCAG | 1.51 |
